Published values gathered from unrelated publications.
Protocols differ between the studies behind these lines.

For `CC1(C)S[C@@H]2[C@H](NC(=O)[C@H](NC(=O)C3=C(O)C(c4ccccc4F)NC3=O)c3ccccc3)C(=O)N2[C@H]1C(=O)O` (stereo partly shown), the MIC was 12.5 µg/mL (Escherichia coli; broth microdilution; BW25113; 18 h, with: 2,2'-bipyridyl 30 µg/mL and CCCP 50 µg/mL).
The MIC of `C#CCN(CC(=O)O[C@H]1[C@H](C)O[C@@H](O[C@H]2[C@H](N(C)C)[C@@H](O)[C@H](O[C@H]3[C@@H](CC=O)C[C@@H](C)[C@@H](O[C@H]4CC[C@H](N(C)C)[C@@H](C)O4)/C=C/C=C/C[C@@H](C)OC(=O)C[C@@H](O)[C@@H]3OC)O[C@@H]2C)C[C@@]1(C)O)C(=O)c1ccc(C(F)(F)F)cc1` is reported as 4 to 16 µM (Staphylococcus aureus, Staphylococcus epidermidis, Bacillus subtilis; incl. MRSA; range over four strains).
For `Oc1c(Cl)cc(Cl)c2cccnc12`, the MIC was 37.4 µM (Achromobacter xylosoxidans; agar dilution; ATCC 27061).
The MIC of `O=c1c2ccccc2sn1-c1cc(Br)cc(Br)c1` is reported as 6.25 µg/mL (Candida albicans; growth, broth dilution; ATCC MYA-2876 (susceptible); MIC-0).
The MIC of `CC[C@@H](C)[C@@H](NC(=O)[C@@H](C)NC(=O)[C@@H](CCCCN)NC(=O)[C@@H](CC(C)C)NC(=O)[C@@H](C)NC(=O)[C@H](NC(=O)[C@@H](Cc1c[nH]cn1)NC(=O)[C@@H](CC(C)C)NC(=O)[C@H](NC(=O)[C@H](NC(=O)[C@@H](CCCCN)NC(=O)[C@H](NC(=O)[C@@H](C)NC(=O)[C@@H](CO)NC(=O)[C@@H](CCCCN)NC(=O)[C@@H](Cc1ccccc1)NC(=O)[C@H](NC(=O)[C@@H](CCCCN)NC(=O)[C@@H](CC(C)C)NC(=O)[C@@H](Cc1ccccc1)NC(=O)[C@@H](CO)NC(=O)[C@@H](CCCCN)NC(=O)[C@@H](Cc1c[nH]c2ccccc12)NC(=O)[C@@H](CCCCN)NC(C)=O)[C@H](C)O)C(C)C)[C@H](C)O)C(C)C)[C@H](C)O)C(=O)N[C@H](CO)C(=O)N[C@H](CO)C(N)=O` is reported as 0.7 µM (Acinetobacter baumannii; 649, Mueller-Hinton broth; 24 h, 37 °C).
With `Oc1c(Br)ccc2cccnc12` the MIC was 35.7 µM (Listeria monocytogenes; microbial growth, agar dilution).
`CC(=O)N[C@H](CCCCN)C(=O)N[C@H](CC(C)C)C(=O)N[C@H](CCCCN)C(=O)N[C@H](CO)C(=O)N[C@H](CC(C)C)C(=O)N[C@H](CC(C)C)C(=O)N[C@H](CCCCN)C(=O)N[C@@H](C(=O)N[C@H](CC(C)C)C(=O)N[C@H](CO)C(=O)N[C@H](CCCCN)C(=O)N[C@H](C)C(=O)N[C@H](CCCCN)C(=O)N[C@H](CCCCN)C(=O)N[C@H](CCCCN)C(=O)N[C@H](CCCCN)C(=O)N[C@H](CC(C)C)C(=O)N[C@H](CCCCN)C(=O)N[C@@H](C(=O)N[C@H](CC(C)C)C(=O)N[C@H](CC(C)C)C(=O)N[C@H](CCCCN)C(=O)N[C@H](C)C(=O)N[C@H](CC(C)C)C(=O)N[C@H](CO)C(=O)N[C@H](CCCCN)C(N)=O)[C@H](C)O)[C@H](C)O` gave an MIC of 0.7 µM (Acinetobacter baumannii; broth microdilution; ATCC 17978; 24 h, 37 °C).
`CCCCCCCCCCCCCCCC(=O)O[C@H]1[C@H](C)O[C@@H](O[C@H]2[C@H](N(C)C)[C@@H](O)[C@H](O[C@H]3[C@@H](CC=O)C[C@@H](C)[C@@H](O[C@H]4CC[C@H](N(C)C)[C@@H](C)O4)/C=C/C=C/C[C@@H](C)OC(=O)C[C@@H](O)[C@@H]3OC)O[C@@H]2C)C[C@@]1(C)O` gave an MIC of 4 to 32 µM (Staphylococcus aureus, Staphylococcus epidermidis, Bacillus subtilis; incl. MRSA; range over four strains).
The MIC of `N#Cc1ccc2cccc(O)c2n1` is reported as 1500 µM (Shewanella putrefaciens; agar dilution; ATCC 8071).
For `CC[C@@H](C)[C@@H](NC(=O)[C@@H](C)NC(=O)[C@@H](CCCCN)NC(=O)[C@@H](CC(C)C)NC(=O)[C@@H](CC(C)C)NC(=O)[C@H](NC(=O)[C@@H](CCCCN)NC(=O)[C@@H](CC(C)C)NC(=O)[C@@H](CCCCN)NC(=O)[C@@H](CCCCN)NC(=O)[C@@H](CCCCN)NC(=O)[C@@H](CCCCN)NC(=O)[C@@H](C)NC(=O)[C@@H](CCCCN)NC(=O)[C@@H](CO)NC(=O)[C@@H](Cc1ccccc1)NC(=O)[C@H](NC(=O)[C@@H](CCCCN)NC(=O)[C@@H](CC(C)C)NC(=O)[C@@H](Cc1ccccc1)NC(=O)[C@@H](CO)NC(=O)[C@@H](CCCCN)NC(=O)[C@@H](Cc1c[nH]c2ccccc12)NC(=O)[C@@H](CCCCN)NC(C)=O)[C@H](C)O)[C@H](C)O)C(=O)N[C@H](CO)C(=O)N[C@H](CCCCN)C(N)=O`, the MIC was 0.6 µM (Acinetobacter baumannii; 759, Mueller-Hinton broth; 24 h, 37 °C).
